# Published values of several laboratories.
# Values joined by “and” are separate records of one study, mostly repeats; a detail may differ. Numbers after ± are the reported error.
Compound,tested on,test,system,conditions,scale,endpoint,value
CC(C)c1ccc(N(C)c2ccc3c(c2)OCC[C@H]3CNc2cnccc2C(=O)O)cc1,HLF,"cell growth or viability, ATP luminescence",,7 days,,IC50,18 nM
COc1ccccc1-c1ccncc1C(=O)Nc1nnc(OCc2ccc(Cl)cc2)s1,MDA-MB-231,,,"12 µM, mean of 3 replicates",baseline: untreated,colony survival,71.9%
[Cl-].[Cl-].[Ru+2].c1cc(-c2ccc3cccnc3n2)nc(-c2ccc3cccnc3n2)c1.c1ccc2cc3nc4c5cccnc5c5ncccc5c4nc3cc2c1,B16-F10,resazurin,,"with: light 633 nm, 100 J/cm2",baseline: dark EC50 over light EC50,phototoxicity index,1
COc1cc(N2CCN(C(=O)C3CCCN3)CC2)ccc1Nc1ncc(Cl)c(Nc2ccccc2P(C)(C)=O)n1 (stereo not drawn),NCI-H3122,flow cytometry,,"500 nM, 24 h",,cells in G2 phase,5.8%
COC1=C2CC(C)CC(OC)C(O)C(C)C=C(C)C(OC(N)=O)C(OC)C=CC=C(C)C(=O)NC(=CC1=O)C2=O (stereo not drawn),Rh30,"ChIP-seq, measured: H3K36me3 peak",,"concentration not given, SOCS3 TTS chr17:76347000-76357399",baseline: untreated control,log fold change,-0.825
Cc1ncsc1-c1ccc(C(C)NC(=O)C2CC(O)CN2C(=O)C(NC(=O)CCCCCCCCCCN2CCCC(Nc3ncc(Cl)c(Nc4ccccc4S(=O)(=O)C(C)C)n3)C2)C(C)(C)C)cc1 (stereo not drawn),22Rv1,"RNA-seq, measured: TMEM86A mRNA",,concentration not given,baseline: DMSO,log2 fold change,-2.44
O=C(C[Se]C(=O)C12CC3CC(CC(C3)C1)C2)Nc1cccc(C(F)(F)F)c1,NCI60 breast subpanel,NCI60 five-dose screen,,,,GI50,6100 nM
Cc1c(Cl)c(=O)oc2cc(OCCCCCCSC#N)ccc12,T47D,"cell growth or viability, SRB",,,,GI50,9800 nM
O=C(C[Se]C(=O)c1cc2ccccc2[nH]1)Nc1cccc(C(F)(F)F)c1,NCI60 breast subpanel,NCI60 five-dose screen,,,,GI50,1720 nM
CN1CCCNC(=O)c2cccc(c2)C(=O)NCCCN(C)CCCNc2cccc3c2C(=O)c2cccc(c2C3=O)NCCC1,SAS,"RNA-Seq, measured: MRPL10 mRNA",,"1 µM, 6 h",baseline: untreated cells,log2 fold change,0.485
CCN(CC)CC(=O)Nc1cccc(-n2cc(-c3ccc4ccc(-c5cn(-c6cccc(NC(=O)CN(CC)CC)c6)nn5)cc4c3)nn2)c1,RCC4,"PCR array, measured: PDGFA",,"5 x IC50, 6 h, normoxia",baseline: untreated,fold regulation,-1.44
CCOc1cncc(-c2ccc(NC(=O)C3(c4ccnc(NS(=O)(=O)C5CC5)n4)CCOCC3)nc2)n1,renal cancer,"cell viability, CellTiter-Glo",DMSO 0.1%,"72 h, line code 2516",,IC50,421 nM
CCN(C(=O)c1cc(F)ccc1Oc1nncnc1N1CCC2(C1)CN([C@H](CCCN(C)CCOC)C(C)C)C2)C(C)C,5637,cell growth,,168 h,,GI50,> 10000 nM
COC(=O)c1cc(NC2=NC(=O)C(=Cc3ccc(N(C)C)cc3)S2)ccc1OC(C)=O,A549,measured: CLSPN mRNA,,"2.93 µM (IC50), 24 h",baseline: DMSO,fold change,0.018
CSC(=S)N/N=C(\C)c1ccc(Nc2nnc(-c3ccc(Cl)cc3)c3ccccc23)cc1,HepG2,"cell growth or viability, MTT",,"5 µM, 24 h",,viability,7.89%
CC(C)(C)c1cc(-c2ccc3cccnc3n2)nc(-c2ccc3cccnc3n2)c1.[Cl-].[Cl-].[Ru+2].c1cnc2c(c1)ccc1cccnc12,B16-F10,"photocytotoxicity, resazurin",,"visible light 400-700 nm, 20 mW, 100 J/cm2",,EC50,121000 ± 5000 nM
CN1CCC(N[C@@H]2CCc3[nH]c4c(C(N)=O)ccc(-c5ccccc5Cl)c4c3C2)CC1,HuCCT-1,cell growth or viability,,,,IC50,2.04 nM
C=CC(=O)N1[C@@H](c2ccc3c(c2)OCO3)c2[nH]c3ccccc3c2C[C@H]1C(=O)NC1CC1,rat DRG neurons,,,"10 µM, 48 h, with: vincristine 40 nM",,neuron degeneration,16.7% and 17.5%
COc1cccc2c1cc1c3c(cc4c(c32)OCO4)[C@@H]2c3c4c5c(cc6c(c5c5cccc(OC)c35)OCO6)CCN4[C@@H]2N1C (racemic),S102,"cytotoxicity, MTT",,"50 µg/mL, 48 h",,inhibition,< 50%
CO[C@@H]1[C@@H](OC(N)=O)[C@@H](O)[C@H](Oc2ccc3c(O)c(NC(=O)c4ccc(O)c(CC=C(C)C)c4)c(=O)oc3c2C)OC1(C)C,DLD-1 BRCA2-/-,,,"50 µM, replicate 2",,colony count,13
CC(C)(C)c1cc(-c2ccc3cc4ccccc4nc3n2)nc(-c2ccc3cc4ccccc4nc3n2)c1.[Cl-].[Cl-].[Ru+2].c1ccc2cc3nc4c5cccnc5c5ncccc5c4nc3cc2c1,B16-F10,,,visible light 100 J/cm2,baseline: dark EC50 over light EC50,phototherapeutic index,26
COC1CN([C@H]2CC[C@H]([C@@]3(C)Oc4c(Cl)cc(C(=O)NCc5c(SC)cc(C)[nH]c5=O)c(C)c4O3)CC2)C1,,"RNA-seq, measured: CCM2L","human, whole blood","dose not given, 24 h",baseline: pretreatment baseline,log2 fold change,4.14
CC1(C)CC[C@@]2(CO)C(=C3C=C[C@@H]4[C@@]5(C)CC[C@H](O)[C@@](C)(CO)[C@@H]5CC[C@@]4(C)[C@]3(C)C[C@@H]2O)C1,"HepG2, SIRT1 siRNA","Western blot, measured: SIRT1",,"concentration not given, high dose, unit not given, with: ethanol",baseline: β-actin,protein level,0.278 and 0.233 and 0.334
CNS(=O)(=O)Nc1nccc(Cc2c(C)c3ccc(Oc4ncccc4F)cc3oc2=O)c1F,NCI-H1666,cell viability,,7 days,,IC50,1.94 nM
Cn1ncc2cc(-c3cncc(Cl)c3N3CCC4(CCNC4=O)CC3)ccc21,LS174T,"gene expression, microarray, measured: TTN mRNA",,"concentration not given, 4 h",baseline: untreated cells,log2 fold change,-3.92
C=CC(=O)N1CCCC(n2c(=O)c3ncccc3n(Cc3ccc(Oc4ccccc4)cc3)c2=O)C1 (stereo not drawn),Rec1,measured: BID,,concentration not given,baseline: untreated,log2 fold change,-0.279
C=C(NC(=O)c1csc(-c2ccc(NC(=O)CCCCCBr)cc2)n1)C(=O)NC(=C)C(=O)OC,OCI,cell viability,,,,EC50,800 nM

# A few entries again:
Compound,tested on,test,system,conditions,scale,endpoint,value
CO[C@@H]1[C@@H](OC(N)=O)[C@@H](O)[C@H](Oc2ccc3c(O)c(NC(=O)c4ccc(O)c(CC=C(C)C)c4)c(=O)oc3c2C)OC1(C)C,DLD-1 BRCA2-/-,,,"50 µM, replicate 2",,colony count,13
CNS(=O)(=O)Nc1nccc(Cc2c(C)c3ccc(Oc4ncccc4F)cc3oc2=O)c1F,NCI-H1666,cell viability,,7 days,,IC50,1.94 nM
CCN(CC)CC(=O)Nc1cccc(-n2cc(-c3ccc4ccc(-c5cn(-c6cccc(NC(=O)CN(CC)CC)c6)nn5)cc4c3)nn2)c1,RCC4,"PCR array, measured: PDGFA",,"5 x IC50, 6 h, normoxia",baseline: untreated,fold regulation,-1.44
